Measurements from different studies.
Parts stem from different laboratories: compare values within a part only. Changes are numbered by the printed parent chain.

Study 1
Target: Sal-like protein 4, full length isoform A (SALL4, Homo sapiens, UniProt Q9UJQ4, residues 1-1053)
Sequence of UniProt Q9UJQ4 (whole entry, looked up): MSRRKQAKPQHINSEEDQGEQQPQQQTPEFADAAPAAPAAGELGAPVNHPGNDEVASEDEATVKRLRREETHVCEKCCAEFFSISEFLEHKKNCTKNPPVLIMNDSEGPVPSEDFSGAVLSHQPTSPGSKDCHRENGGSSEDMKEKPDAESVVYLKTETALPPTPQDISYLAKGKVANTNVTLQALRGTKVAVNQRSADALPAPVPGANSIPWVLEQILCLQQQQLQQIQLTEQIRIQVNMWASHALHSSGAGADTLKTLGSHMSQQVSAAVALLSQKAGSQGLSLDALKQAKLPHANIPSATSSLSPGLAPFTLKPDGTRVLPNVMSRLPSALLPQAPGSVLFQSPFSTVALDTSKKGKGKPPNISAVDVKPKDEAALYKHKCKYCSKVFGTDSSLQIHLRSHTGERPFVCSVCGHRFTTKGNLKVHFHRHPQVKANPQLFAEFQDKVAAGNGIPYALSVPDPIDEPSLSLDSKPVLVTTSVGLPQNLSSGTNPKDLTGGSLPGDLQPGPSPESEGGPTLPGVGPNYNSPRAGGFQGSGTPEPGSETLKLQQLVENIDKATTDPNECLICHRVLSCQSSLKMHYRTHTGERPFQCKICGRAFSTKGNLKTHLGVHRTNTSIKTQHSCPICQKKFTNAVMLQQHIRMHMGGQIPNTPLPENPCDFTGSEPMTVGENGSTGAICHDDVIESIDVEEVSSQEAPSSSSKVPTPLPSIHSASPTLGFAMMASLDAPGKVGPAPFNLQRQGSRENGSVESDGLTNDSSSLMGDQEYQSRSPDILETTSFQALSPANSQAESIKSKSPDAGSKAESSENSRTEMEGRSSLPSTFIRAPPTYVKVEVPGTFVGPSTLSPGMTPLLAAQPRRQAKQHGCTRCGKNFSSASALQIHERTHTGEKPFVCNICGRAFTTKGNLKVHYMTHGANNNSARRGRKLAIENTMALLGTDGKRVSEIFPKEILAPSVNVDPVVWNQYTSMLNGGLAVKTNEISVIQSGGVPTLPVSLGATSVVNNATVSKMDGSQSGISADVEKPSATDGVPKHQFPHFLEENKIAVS
Technique: universal PBM
Form: double-stranded DNA, one strand shown
Medium: in vitro
Tested at: 600 nM
Notes: 8-mer, flanks averaged, mean of replicates
Direction: higher = stronger binding
| Oligonucleotide | E-score |
| --- | --- |
| TCCAGACA | -0.102 |
| AGAATAGA | 0.161 |
| AGTATTCG | 0.176 |
| GCCGTCTA | -0.167 |
| CACCTCCA | -0.0504 |
| CTAGTGCC | -0.232 |
| GATAAGTA | 0.24 |
| ACAACACT | 0.156 |
| AAGCAGGC | -0.227 |
| AGCAAAGA | 0.042 |

Study 2
Target: CCNF, cyclin fold, Cln2 fusion (human)
Technique: yeast growth competition, sequencing
Medium: yeast
Notes: strong parent motif
Reference: not given
Direction: higher = stronger binding
Parent: SCAPER docking peptide (human); SNARRSLNFGGST
| Change | normalised enrichment score |
| --- | --- |
| SNARRSLNFGDST [G11D] | 7.68 |
| SNNRRSLNFGGST [A3N] | 1.9 |
| SNAYRSLNFGGST [R4Y] | 3.67 |
| SFARRSLNFGGST [N2F] | 8.14 |
| SNARRSLNVGGST [F9V] | 0.605 |
| SNARRSLVFGGST [N8V] | 5.56 |
| SNARRSLNFLGST [G10L] | 7.14 |
| SAARRSLNFGGST [N2A] | 5.7 |

Study 3
Target: Interferon regulatory factor 5, full length, phosphomimetic (IRF5, Homo sapiens, UniProt Q13568-2, residues 1-514, K96S/S451D/S453D/S456D/S462D)
Technique: protein-binding microarray
Form: double-stranded DNA, one strand shown
Medium: in vitro
Tested at: 250 nM
Notes: 60-bp whole probe
Added: salmon DNA 0.4 mg/ml
Reference: random background probes
Direction: higher = stronger binding
Shared flanks, not repeated: GCCTAGCAC … GTCTTGATTCGCTTGACGCTGCTG
| Oligonucleotide | log fluorescence [z-score] |
| --- | --- |
| TTAGGTTTCGGGTTTAGGTTAGTGCTA | 8.34 |
| GACGAGTCCAGTTTCGAGACGTGCTAG | 5.28 |
| CCTAGGGGCGGGGCCAAATGGTGCTAG | 0.797 |
| TCATTTTTGGTAATAGTACTGTGCTAG | 1.88 |
| TTAGGTCTCGCTCTCGGTTAGTGCTAG | 0.452 |
| GACGAACTGAGTTTCGAAACGTGCTAG | 6.07 |
| TTAGATATCAGGACTGGATTAGTGCTA | 0.407 |

Other studies, line by line
| Molecule | target | assay | test system | setting | scale | quantity | result |
| --- | --- | --- | --- | --- | --- | --- | --- |
| PhoQ, residues 284 288 289 292 302 303 ALVSVA | PhoP, residues 12 14 15 18 19 QQAYL (Escherichia coli, UniProt P23836) | Sort-seq, refers to: YFP reporter | E. coli | PhoQ-PhoP variant library, added: 10 µM Mg2+ | reference: high Mg2+ state, higher = stronger signaling | fold induction | 21 |

Repeated from above (study 1):
| Oligonucleotide | E-score |
| --- | --- |
| AGAATAGA | 0.161 |
| AGTATTCG | 0.176 |
| GCCGTCTA | -0.167 |
